# Results pooled from the literature.
# Parts stem from different laboratories: compare values within a part only. “And” joins repeats or separate records; there may be more than shown.
# Sequence of UniProt P51955 (whole entry, looked up): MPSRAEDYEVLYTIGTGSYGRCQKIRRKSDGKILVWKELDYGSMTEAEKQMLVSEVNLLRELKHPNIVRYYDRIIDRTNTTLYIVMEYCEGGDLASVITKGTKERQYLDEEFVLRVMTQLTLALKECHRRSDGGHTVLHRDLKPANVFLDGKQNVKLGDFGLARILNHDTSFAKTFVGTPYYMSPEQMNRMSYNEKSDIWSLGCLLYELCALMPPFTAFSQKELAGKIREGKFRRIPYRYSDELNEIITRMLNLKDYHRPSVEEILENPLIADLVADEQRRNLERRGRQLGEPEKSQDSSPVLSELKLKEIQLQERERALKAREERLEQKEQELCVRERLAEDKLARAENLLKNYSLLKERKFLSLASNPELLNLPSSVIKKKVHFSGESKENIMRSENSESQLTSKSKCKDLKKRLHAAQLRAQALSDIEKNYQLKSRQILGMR
# Sequence of UniProt Q13882 (whole entry, looked up): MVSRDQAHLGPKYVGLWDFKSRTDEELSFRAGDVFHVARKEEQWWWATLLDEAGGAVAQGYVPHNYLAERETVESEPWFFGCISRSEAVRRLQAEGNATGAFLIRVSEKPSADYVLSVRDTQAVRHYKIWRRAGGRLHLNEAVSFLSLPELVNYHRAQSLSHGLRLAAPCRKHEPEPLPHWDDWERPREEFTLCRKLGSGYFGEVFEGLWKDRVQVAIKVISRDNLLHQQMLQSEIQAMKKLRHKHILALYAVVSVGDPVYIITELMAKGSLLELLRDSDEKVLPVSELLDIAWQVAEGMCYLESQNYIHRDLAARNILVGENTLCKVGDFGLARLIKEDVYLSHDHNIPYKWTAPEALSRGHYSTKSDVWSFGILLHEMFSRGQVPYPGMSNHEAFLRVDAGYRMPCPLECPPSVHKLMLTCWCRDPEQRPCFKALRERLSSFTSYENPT
# Sequence of UniProt Q14680 (whole entry, looked up): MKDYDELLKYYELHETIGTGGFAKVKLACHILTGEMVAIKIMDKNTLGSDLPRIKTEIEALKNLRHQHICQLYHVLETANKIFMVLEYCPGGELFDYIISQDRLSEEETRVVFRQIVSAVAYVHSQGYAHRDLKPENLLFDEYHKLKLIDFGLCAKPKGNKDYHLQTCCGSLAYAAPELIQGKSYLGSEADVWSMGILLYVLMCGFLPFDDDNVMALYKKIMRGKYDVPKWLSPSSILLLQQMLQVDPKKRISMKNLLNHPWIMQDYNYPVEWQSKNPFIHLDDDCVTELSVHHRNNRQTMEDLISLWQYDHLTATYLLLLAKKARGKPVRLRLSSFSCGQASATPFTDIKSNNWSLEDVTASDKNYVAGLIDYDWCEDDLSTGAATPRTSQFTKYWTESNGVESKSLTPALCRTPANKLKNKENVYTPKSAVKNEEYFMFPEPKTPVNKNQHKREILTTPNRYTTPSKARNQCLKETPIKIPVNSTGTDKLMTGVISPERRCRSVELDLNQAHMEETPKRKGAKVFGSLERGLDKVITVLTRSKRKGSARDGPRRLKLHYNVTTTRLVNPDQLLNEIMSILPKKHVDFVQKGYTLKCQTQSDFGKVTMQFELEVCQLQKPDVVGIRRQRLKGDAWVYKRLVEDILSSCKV
# Sequence of UniProt Q9H093 (whole entry, looked up): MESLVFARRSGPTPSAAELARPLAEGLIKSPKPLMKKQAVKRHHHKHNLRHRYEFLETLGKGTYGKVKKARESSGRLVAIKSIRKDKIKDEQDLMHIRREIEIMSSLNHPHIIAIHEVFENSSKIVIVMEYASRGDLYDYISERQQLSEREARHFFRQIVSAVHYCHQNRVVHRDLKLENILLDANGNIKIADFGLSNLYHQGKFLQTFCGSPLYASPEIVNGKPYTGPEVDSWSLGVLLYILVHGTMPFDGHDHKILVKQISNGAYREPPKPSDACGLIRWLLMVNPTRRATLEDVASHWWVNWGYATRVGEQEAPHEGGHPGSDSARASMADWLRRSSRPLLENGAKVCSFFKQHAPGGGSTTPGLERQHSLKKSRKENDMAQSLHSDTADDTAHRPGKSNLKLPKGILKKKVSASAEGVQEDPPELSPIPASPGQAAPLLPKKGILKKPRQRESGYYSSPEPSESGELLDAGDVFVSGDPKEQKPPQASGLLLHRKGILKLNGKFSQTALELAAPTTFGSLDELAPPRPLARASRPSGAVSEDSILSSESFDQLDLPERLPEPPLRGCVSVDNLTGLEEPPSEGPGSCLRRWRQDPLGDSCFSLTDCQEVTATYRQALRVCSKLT
# Sequence of UniProt P53355 (whole entry, looked up): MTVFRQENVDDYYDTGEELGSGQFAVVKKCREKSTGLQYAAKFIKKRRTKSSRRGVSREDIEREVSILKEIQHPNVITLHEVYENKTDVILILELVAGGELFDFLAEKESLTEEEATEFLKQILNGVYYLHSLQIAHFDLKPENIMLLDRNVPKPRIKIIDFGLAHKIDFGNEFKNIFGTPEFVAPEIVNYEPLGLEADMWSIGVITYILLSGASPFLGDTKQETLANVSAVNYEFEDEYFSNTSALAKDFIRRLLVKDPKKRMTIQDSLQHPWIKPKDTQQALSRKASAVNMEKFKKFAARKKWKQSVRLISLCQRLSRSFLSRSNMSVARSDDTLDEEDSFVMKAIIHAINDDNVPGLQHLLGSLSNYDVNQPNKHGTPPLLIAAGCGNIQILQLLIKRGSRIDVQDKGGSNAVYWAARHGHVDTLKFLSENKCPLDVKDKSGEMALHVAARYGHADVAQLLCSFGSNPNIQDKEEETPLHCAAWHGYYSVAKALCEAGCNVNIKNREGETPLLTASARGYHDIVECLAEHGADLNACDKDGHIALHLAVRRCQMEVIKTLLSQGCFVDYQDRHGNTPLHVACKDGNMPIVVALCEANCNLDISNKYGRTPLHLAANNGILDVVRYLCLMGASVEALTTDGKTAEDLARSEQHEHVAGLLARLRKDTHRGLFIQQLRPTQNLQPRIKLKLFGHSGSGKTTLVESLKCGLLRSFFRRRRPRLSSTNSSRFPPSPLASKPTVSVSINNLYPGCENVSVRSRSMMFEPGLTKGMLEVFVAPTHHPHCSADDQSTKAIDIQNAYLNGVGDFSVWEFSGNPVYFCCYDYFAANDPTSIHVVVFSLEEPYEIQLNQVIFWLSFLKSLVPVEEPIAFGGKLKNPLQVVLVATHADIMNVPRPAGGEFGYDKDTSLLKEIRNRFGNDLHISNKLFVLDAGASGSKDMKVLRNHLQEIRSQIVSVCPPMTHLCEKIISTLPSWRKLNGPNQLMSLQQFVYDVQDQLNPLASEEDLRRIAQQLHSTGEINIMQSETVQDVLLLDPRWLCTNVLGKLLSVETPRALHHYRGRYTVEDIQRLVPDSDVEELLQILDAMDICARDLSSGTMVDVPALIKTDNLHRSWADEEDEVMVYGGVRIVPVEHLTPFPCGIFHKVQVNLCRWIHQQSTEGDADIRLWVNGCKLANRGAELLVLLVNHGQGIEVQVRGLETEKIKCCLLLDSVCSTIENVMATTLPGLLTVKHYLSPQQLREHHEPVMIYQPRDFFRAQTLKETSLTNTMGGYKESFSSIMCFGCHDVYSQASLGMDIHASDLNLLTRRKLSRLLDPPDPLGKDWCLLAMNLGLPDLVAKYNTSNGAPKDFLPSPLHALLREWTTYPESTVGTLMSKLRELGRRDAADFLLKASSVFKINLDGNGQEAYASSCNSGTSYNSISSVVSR
# Sequence of UniProt P48729 (whole entry, looked up): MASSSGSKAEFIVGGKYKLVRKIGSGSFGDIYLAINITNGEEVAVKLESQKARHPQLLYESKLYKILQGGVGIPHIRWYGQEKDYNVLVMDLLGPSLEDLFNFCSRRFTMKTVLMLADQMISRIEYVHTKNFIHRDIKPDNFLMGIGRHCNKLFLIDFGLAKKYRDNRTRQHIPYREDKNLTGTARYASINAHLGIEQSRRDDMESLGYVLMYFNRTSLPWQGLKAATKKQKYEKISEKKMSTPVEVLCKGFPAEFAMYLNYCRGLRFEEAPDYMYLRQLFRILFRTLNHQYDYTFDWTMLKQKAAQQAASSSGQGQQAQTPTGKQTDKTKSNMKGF
# Sequence of UniProt Q52WX2 (whole entry, looked up): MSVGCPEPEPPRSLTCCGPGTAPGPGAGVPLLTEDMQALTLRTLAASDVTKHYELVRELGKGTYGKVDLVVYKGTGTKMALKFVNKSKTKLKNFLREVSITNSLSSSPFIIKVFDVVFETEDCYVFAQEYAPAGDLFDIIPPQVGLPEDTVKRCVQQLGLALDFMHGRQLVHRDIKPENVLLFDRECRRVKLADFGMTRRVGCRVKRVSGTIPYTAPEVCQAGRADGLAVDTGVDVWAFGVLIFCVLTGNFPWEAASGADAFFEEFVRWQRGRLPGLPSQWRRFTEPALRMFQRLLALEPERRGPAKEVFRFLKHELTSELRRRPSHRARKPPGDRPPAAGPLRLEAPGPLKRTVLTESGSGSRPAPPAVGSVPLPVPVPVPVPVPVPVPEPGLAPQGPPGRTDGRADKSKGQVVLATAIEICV

# Set 1
# Cell line: mouse MPNST tumor cells
# Technique: high-content immunofluorescence imaging
# Measured: nuclear SOX9
# Concentration: 10 µM
# Time: 12 h
# Setting: mean of 2 replicates
# Baseline: DMSO control
# Direction: higher = more nuclear SOX9
SMILES,nuclear SOX9 intensity
CN(C)CCC=C1c2ccccc2COc2ccccc21,150 % of DMSO
Cn1nnc2c(C(N)=O)ncn2c1=O,105 % of DMSO and 82.8 % of DMSO and 101 % of DMSO
O=c1cc(CN2CCOCC2)occ1OCCCCCSc1ccnc2cc(C(F)(F)F)ccc12,118 % of DMSO
CC(=O)c1cc(-c2cc(C(=O)NC3CC3)ccc2C)c2ncccn12,120 % of DMSO and 115 % of DMSO
CC(=NNC(=S)N1CCC1)c1ccccn1,248 % of DMSO
Cc1noc(NS(=O)(=O)c2cccc3c(N(C)C)cccc23)c1C,101 % of DMSO
Cc1ccc(S(=O)(=O)Nc2ccc3c(c2)c(C(=O)C(F)(F)F)cn3CC(=O)N[C@@H](CC(C)C)C(=O)O)cc1,91.1 % of DMSO
CN[C@@H]1[C@H](O[C@H]2[C@H](O[C@H]3[C@H](O)[C@@H](O)[C@H](NC(=N)N)[C@@H](O)[C@@H]3NC(=N)N)O[C@@H](C)[C@]2(O)CO)O[C@@H](CO)[C@H](O)[C@H]1O,101 % of DMSO
Cn1ccc2cc(NC(=O)Nc3cccnc3)ccc21,98.6 % of DMSO
CC1(C)C(=O)C(C)(C)c2cc(C(=O)Nc3ccc(C(=O)O)cc3)ccc21,122 % of DMSO
Cc1c(NC(=O)N2CCOCC2)ccc2c1c1ccccc1n2C(C)C,98.5 % of DMSO
CC(C)(N)c1cc(C(=O)N[C@@H]2CCc3ccc(Oc4ccnc5c4CCC(=O)N5)cc3C2)cc(C(F)(F)F)c1,47.2 % of DMSO
COc1ccc(CN(CCN(C)C)c2ccccn2)cc1,110 % of DMSO
c1ccc(-c2n[nH]c3c2oc2ccccc23)cc1,75.5 % of DMSO
CC[C@@H]([C@H](C)O)n1ncn(-c2ccc(N3CCN(c4ccc(OC[C@@H]5CO[C@@](Cn6cncn6)(c6ccc(F)cc6F)C5)cc4)CC3)cc2)c1=O,212 % of DMSO
COc1ccc2[nH]c(=O)c(C(c3nnnn3CCc3ccccc3)N3CCN(C4CCCCC4)CC3)cc2c1 (centres unmarked),127 % of DMSO
CCc1c(C(=O)Nc2cc(S(=O)(=O)N(CC)CC)ccc2O)[nH]c(C)c1C(C)=O,124 % of DMSO

# Set 2
# Cell line: A-375
# Concentration: 100 µM
# Time: 36 h
SMILES,viability [%]
O=C(O)c1cc(O)c(O)c(O)c1,7.7
NC(=O)CCCCC1CCSS1 (centres unmarked),103
CN1CCCCC1CCN1c2ccccc2Sc2ccc([S+](C)[O-])cc21 (centres unmarked),2.58
CCOc1cc([C@@H](CS(C)(=O)=O)N2C(=O)c3cccc(NC(C)=O)c3C2=O)ccc1OC,97.3
C#C[C@]1(O)CC[C@H]2[C@@H]3CCC4=CC(=O)CC[C@@H]4[C@H]3CC[C@@]21C,90.4
NC1C(O)O[C@H](CO)C(O[C@@H]2O[C@H](CO)C(O[C@@H]3O[C@H](CO)[C@@H](O)[C@H](O)[C@H]3N)[C@H](O)C2N)C1O (some centres unmarked),122
C=C1CC[C@H](O)C/C1=C/C=C1\CCC[C@]2(C)[C@@H]([C@H](C)/C=C/[C@H](C)C(C)C)CC[C@@H]12,3.81
O=C(Nc1ccc(Cl)cc1)c1cc(Br)ccc1O,14.2
O=C(NCCO[N+](=O)[O-])c1cccnc1,85.7
CCCc1nc(C(C)(C)O)c(C(=O)OCc2oc(=O)oc2C)n1Cc1ccc(-c2ccccc2-c2nnn[nH]2)cc1,96.5
CC(C)(C)NC(=O)[C@H]1CC[C@H]2[C@@H]3CC[C@H]4NC(=O)C=C[C@]4(C)[C@H]3CC[C@]12C,49
CCOC(=O)[C@H](CCc1ccccc1)N[C@@H](C)C(=O)N(CC(=O)O)C1Cc2ccccc2C1,94.7

# Set 3
# SMILES: O=C(Nc1cnn(-c2csc(C(=O)NC3COC3)c2)c1)Nc1c(F)cccc1Cl
# Concentration: 5 µM
target,test,scale,remaining activity
"CSNK1A1 (Homo sapiens, UniProt P48729)",enzyme activity,baseline: untreated control,74.4%
"TGFBR2 (Homo sapiens, UniProt P37173)",enzyme activity,baseline: untreated control,82.1%
"PTK6 (Homo sapiens, UniProt Q13882)",enzyme activity,baseline: untreated control,85.4%
"CDC42BPG (Homo sapiens, UniProt Q6DT37)","kinase activity, kinase panel profiling",,119%
"MAP2K2 (Homo sapiens, UniProt P36507)",enzyme activity,baseline: untreated control,87.9%
"DAPK1 (Homo sapiens, UniProt P53355)",enzyme activity,baseline: untreated control,97%
"MAST3 (Homo sapiens, UniProt O60307)","enzyme activity, inhibitor",,108%
"GRK1 (Homo sapiens, UniProt Q15835)",enzyme activity,baseline: untreated control,92.7%
"SBK1 (Homo sapiens, UniProt Q52WX2)","enzyme activity, inhibitor",,97.7%
"NUAK2 (Homo sapiens, UniProt Q9H093)",enzyme activity,baseline: untreated control,95.9%
"LATS1 (Homo sapiens, UniProt O95835)",enzyme activity,baseline: untreated control,92.2%
"MELK (Homo sapiens, UniProt Q14680)",enzyme activity,baseline: untreated control,59.6%
"RIPK4 (Homo sapiens, UniProt P57078)","enzyme activity, inhibitor",,96.7%
"NEK2 (Homo sapiens, UniProt P51955)",enzyme activity,baseline: untreated control,93.3%

# Set 4
# Target: NUAK family SNF1-like kinase 1 (NUAK1, Homo sapiens, UniProt O60285)
# Sequence of UniProt O60285 (whole entry, looked up): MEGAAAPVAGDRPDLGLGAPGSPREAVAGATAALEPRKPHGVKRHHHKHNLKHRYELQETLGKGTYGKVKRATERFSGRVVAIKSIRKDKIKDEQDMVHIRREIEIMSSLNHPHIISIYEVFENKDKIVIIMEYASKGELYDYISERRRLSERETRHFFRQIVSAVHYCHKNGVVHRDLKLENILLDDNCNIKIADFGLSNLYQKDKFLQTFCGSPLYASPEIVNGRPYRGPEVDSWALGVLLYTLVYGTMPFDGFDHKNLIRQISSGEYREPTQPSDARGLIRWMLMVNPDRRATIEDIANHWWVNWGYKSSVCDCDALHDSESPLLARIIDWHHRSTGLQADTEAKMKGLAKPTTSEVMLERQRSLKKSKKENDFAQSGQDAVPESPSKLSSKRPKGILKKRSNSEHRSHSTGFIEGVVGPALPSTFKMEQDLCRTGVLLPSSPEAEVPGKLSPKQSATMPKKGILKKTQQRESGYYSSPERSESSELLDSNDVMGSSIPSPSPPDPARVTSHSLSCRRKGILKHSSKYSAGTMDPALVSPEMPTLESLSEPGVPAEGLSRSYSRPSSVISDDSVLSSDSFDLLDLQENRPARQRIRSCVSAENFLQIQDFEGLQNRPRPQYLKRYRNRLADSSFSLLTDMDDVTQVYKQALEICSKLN
# Effect on: enzyme activity
# Action: inhibitor
# Concentration: 0.5 µM
# Baseline: control
Structure (SMILES),remaining activity [%]
CC(C)(C)n1nc(Cc2cccc3ccccc23)c2c(N)ncnc21,98.8
Nc1nccc(-c2c(-c3ccc(F)cc3)ncn2C2CCNCC2)n1,98.4
Oc1ccc(Nc2nc(-c3ccc(Cl)cc3)cs2)cc1,90.7
Cc1ccc(NC2=CC(=O)c3sc(C)nc3C2=O)cc1,93
O=S(=O)(NCCNC/C=C/c1ccc(Br)cc1)c1cccc2cnccc12,32.8
NC(=O)c1ccc(N(C(N)=O)c2c(F)cccc2F)nc1-c1ccc(F)cc1F,108
COc1cc(Nc2c(C#N)cnc3cc(OCCCN4CCN(C)CC4)c(OC)cc23)c(Cl)cc1Cl,11.4
Cc1cncc2cccc(S(=O)(=O)N3CCCN(C(=O)CN)C[C@@H]3C)c12,91.1
COc1ccc(S(=O)(=O)N(CCO)c2ccccc2CN(C)CC=Cc2ccc(Cl)cc2)cc1,96.5
Nc1ncnc2c1cnn2-c1ccccc1,93.2
Fc1ccc(-c2nc3n(c2-c2ccncc2)CCS3)cc1,98.6
CC[n+]1c(/C=C/N(C)c2ccccc2)n(-c2ccccc2)c2ccc(-c3nc4ccccc4s3)cc21,96.1
Cc1cc(Nc2nc(-c3ccccc3)nc3ccccc23)n[nH]1,3.88
CC(=O)c1ccc(N2CCOCC2)cc1O,92.8
CCc1[nH]c(-c2ccc(OC)cc2)nc1-c1ccncc1,92.8
O=C1NC(=O)C(c2c[nH]c3ccccc23)=C1c1c[nH]c2ccccc12,78.5
CCCC(=O)Oc1ccc2[nH]c(C(=O)c3cc4ccccc4[nH]3)cc2c1,94
N#CC(=C(N)Sc1ccc(N)cc1)c1ccccc1C(F)(F)F,95.9
CC#CC(=O)Nc1cc2c(Nc3ccc(F)c(Cl)c3)ncnc2cn1,98.1
CSc1nc(-c2ccnc(N[C@@H](C)c3ccccc3)c2)c(-c2ccc(F)cc2)[nH]1 (racemic),94.3
Nc1nc(Nc2ccc(S(N)(=O)=O)cc2)nn1C(=O)c1c(F)cccc1F,3.29
O=C1Cc2c([nH]c3ccc([N+](=O)[O-])cc23)-c2ccccc2N1,12

# Some of these lines once more (set 1):
SMILES,nuclear SOX9 intensity
Cn1nnc2c(C(N)=O)ncn2c1=O,105 % of DMSO and 82.8 % of DMSO and 101 % of DMSO
O=c1cc(CN2CCOCC2)occ1OCCCCCSc1ccnc2cc(C(F)(F)F)ccc12,118 % of DMSO
CC(=O)c1cc(-c2cc(C(=O)NC3CC3)ccc2C)c2ncccn12,120 % of DMSO and 115 % of DMSO
CC(=NNC(=S)N1CCC1)c1ccccn1,248 % of DMSO
Cc1noc(NS(=O)(=O)c2cccc3c(N(C)C)cccc23)c1C,101 % of DMSO
Cc1ccc(S(=O)(=O)Nc2ccc3c(c2)c(C(=O)C(F)(F)F)cn3CC(=O)N[C@@H](CC(C)C)C(=O)O)cc1,91.1 % of DMSO
CN[C@@H]1[C@H](O[C@H]2[C@H](O[C@H]3[C@H](O)[C@@H](O)[C@H](NC(=N)N)[C@@H](O)[C@@H]3NC(=N)N)O[C@@H](C)[C@]2(O)CO)O[C@@H](CO)[C@H](O)[C@H]1O,101 % of DMSO
